Results collected from several papers.
Protocols differ between the studies behind these lines. “And” joins repeats or separate records; there may be more than shown.
Target: Sodium-dependent serotonin transporter (SLC6A4, Homo sapiens, UniProt P31645)

Structure (SMILES) | assay | setting | how to read | measurement | result
N[C@H](C(=O)N1CCCC1)C1CCN(c2nccc3c(-c4ncc(Cl)cc4Cl)cccc23)CC1 | ligand displacement | 10 µM | – | inhibition | 27%
Cc1sc2c(c1C)C(c1ccc(Cl)cc1)=NC(CC(=O)OC(C)(C)C)c1nnc(C)n1-2 (stereo not shown) | ligand displacement, radioligand | 1 µM | – | inhibition | -19%
Cc1cc(Nc2nc(C[C@@]3(C(=O)O)CCN(Cc4cccc(Cl)c4F)[C@H](C)C3)cc(C)c2F)[nH]n1 | inhibitor | 10 µM | – | inhibition | 10.1%
CCc1nnc(-c2c(OC)cc(-c3cnc4cc(-c5cnn(C)c5)ccn34)cc2OC)o1 | antagonist radioligand, radioligand binding | 10 µM, SafetyScreen44 5-HT transporter mean | lower = stronger displacement | remaining binding | 104%
O=C(O)c1ccc(-c2nc(-c3ccccc3Cl)c3sccn23)cc1 | radioligand binding, safety screen panel | 10 µM | baseline: control | specific binding | 98.1% and 94%
C/C(=N\OCCCN1CCCCC1)c1ccc(C(F)(F)F)cc1 | uptake, inhibitor | 10 µM | – | inhibition | 66.4%
COc1ccc(F)cc1S(=O)(=O)Nc1cnc2c(c1)C(=O)NCCO2 | ligand displacement, radioligand | 10 µM | – | inhibition | 1%
CS(C)(=O)=Nc1ccc(-c2ccc(-c3nc4cc(O[C@@H]5CO[C@H]6[C@@H]5OC[C@H]6O)[nH]c4cc3F)cc2)cc1 | ligand displacement, radioligand | 10 µM | – | inhibition | 2%
C[C@H](NCc1ccc(-c2ccc(C(F)(F)F)cc2)cc1)C(N)=O | radioligand binding, SafetyScreen panel | 1 µM, added: 0.40 nM [3H]Paroxetine | – | inhibition | -3%
CCCO[C@H]1[C@H](O)[C@@H](N)[C@@H](O[C@H]2[C@H](O[C@@H]3O[C@H](CO)[C@@H](O[C@H]4O[C@@H](CN)[C@@H](O)[C@H](O)[C@H]4N)[C@H]3O)[C@@H](O)[C@H](N)C[C@@H]2N)O[C@@H]1CO | radioligand binding | 10 µM, 1% DMSO | – | specific binding | 5%
CN[C@@H]1[C@H](O)[C@H](NC)[C@H]2O[C@]3(O)[C@H](O[C@@H]2[C@H]1O)O[C@H](C)C[C@H]3NC(=O)Cc1cc(Cl)ccn1 | ligand displacement, radioligand | 10 µM | – | inhibition | -10%
CCN(CC)CCOc1ccc(-c2nnn(Cc3ccc(OC)cc3)c2N)cc1 | radioligand binding | 10 µM, human, added: radioligand 10000 nM | – | inhibition | -10.1%
CCOC(=O)[C@](CC)(CCCSCCOCCOCCNC(=O)c1ccc(-c2c3ccc(=N)c(S(=O)(=O)O)c-3oc3c(S(=O)(=O)O)c(N)ccc23)c(C(=O)O)c1)NC(=O)c1ccc(C2CC2)c(Cc2ccc(F)cc2)n1 | ligand displacement, radioligand | 10 µM | – | inhibition | -8%

For quick reference, copied from above:
Structure (SMILES) | assay | setting | how to read | measurement | result
C[C@H](NCc1ccc(-c2ccc(C(F)(F)F)cc2)cc1)C(N)=O | radioligand binding, SafetyScreen panel | 1 µM, added: 0.40 nM [3H]Paroxetine | – | inhibition | -3%
